{"data": "Assay results collected from several papers", "note": "Numbered parts are unrelated; each lists some results of a single study. Positions count from the first letter of the parent shown."}
{"data": "Block 1", "target": "UBE2V2 UBC core domain (UniProt Q15819)", "technique": "yeast two-hybrid", "medium": "yeast", "notes": "mostly zero background", "relative to": "not given", "reading": "higher = stronger interaction", "B1": "RING1 RING domain (UniProt Q06587); chain SPRSLHSELMCPICLDMLKNTMTTKECLHRFCSDCIVTALRSGNKECPTCRKKLVSKRSLR", "B2": "ZMYND11 RING domain (UniProt Q15326); chain DEIDWETENHDWYCFECHLPGEVLICDLCFRVYHSKCLSDEFRLRDSSSPWQCPVCRSIKKKNTNKQEM", "B3": "RNF186 RING domain (UniProt Q9NXI6); chain HSGSTECDLECLVCREPYSCPRLPKLLACQHAFCAICLKLLLCVQDNTWSITCPLCRKVTAVPGGLI", "B4": "VPS8 RING domain (UniProt Q8N3P4); chain TRGLNPKQDYCSICLQQYKRRQEMADEIIVFSCGHLYHSFCLQNKECTVEFEGQTRWTCYKCSSSNKVGKLSE", "B5": "RNF6 RING domain (UniProt Q9Y252); chain NSIDSELGKICSVCISDYVTGNKLRQLPCMHEFHIHCIDRWLSENCTCPICRQPVLGSNIAN", "B6": "MARCHF1 RING domain (UniProt Q8TCQ1); chain TAPRSQSRLSVCPSTQDICRICHCEGDEESPLITPCRCTGTLRFVHQSCLHQWIKSSDTRCCELCKYDFIMETKLKPLRKWE", "B7": "RNF103 RING domain (UniProt O00237); chain WPADMLHCTECVVCLENFENGCLLMGLPCGHVFHQNCIVMWLAGGRHCCPVCRWPSYKKKQPY", "B8": "HLTF RING domain (UniProt Q14527); chain LILSSGSDEECAICLDSLTVPVITHCAHVFCKPCICQVIQNEQPHAKCPLCRNDIHEDNLLE", "B9": "TRIM41 RING domain (UniProt Q8WV44); chain PVQTLQEEAVCAICLDYFTDPVSIGCGHNFCRVCVTQLWGGEDEEDRDELDREEEEEDGEEE", "B10": "NFX1 RING domain (UniProt Q12986); chain IEQLTTEKYECMVCCELVRVTAPVWSCQSCYHVFHLNCIKKWARSPASQADGQSGWRCPACQNVSAHVPNTY", "B11": "ZNRF4 RING domain (UniProt Q8WWF5); chain VRTFTWHNDLCAICLDEYEEGDQLKILPCSHTYHCKCIDPWFSQAPRRSCPVCKQSVAATEDSF", "Construct (chain)": "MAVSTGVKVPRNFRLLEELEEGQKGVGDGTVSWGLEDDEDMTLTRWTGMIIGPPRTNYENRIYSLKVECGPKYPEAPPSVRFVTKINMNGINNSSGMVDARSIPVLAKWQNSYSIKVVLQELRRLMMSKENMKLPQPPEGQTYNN"}
{"Sequence": "B1 (RING1 RING domain)", "lacZ reporter activity": 0}
{"Sequence": "ASEEEFQFLRCQQCQAEAKCPKLLPCLHTLCSGCLEASGMQCPICQAPWPLGADTP (PML RING domain (UniProt P29590))", "lacZ reporter activity": 0}
{"Sequence": "B2 (ZMYND11 RING domain)", "lacZ reporter activity": 0}
{"Sequence": "B3 (RNF186 RING domain)", "lacZ reporter activity": 0}
{"Sequence": "EIKEYKARLTCPCCNTRKKDAVLTKCFHVFCFECVRGRYEARQRKCPKCNAAFGAHDFHR (RNF40 RING domain (UniProt O75150))", "lacZ reporter activity": 0}
{"Sequence": "B4 (VPS8 RING domain)", "lacZ reporter activity": 0}
{"Sequence": "B5 (RNF6 RING domain)", "lacZ reporter activity": 0}
{"Sequence": "B6 (MARCHF1 RING domain)", "lacZ reporter activity": 0}
{"Sequence": "B7 (RNF103 RING domain)", "lacZ reporter activity": 0}
{"Sequence": "B8 (HLTF RING domain)", "lacZ reporter activity": 0}
{"Sequence": "FAEQPSVKLCCQLCCSVFKDPVITTCGHTFCRRCALKSEKCPVDNVKLTVVVNNI (TRAF7 RING domain (UniProt Q6Q0C0))", "lacZ reporter activity": 0}
{"Sequence": "B9 (TRIM41 RING domain)", "lacZ reporter activity": 0}
{"Sequence": "FDPPLESKYECPICLMALREAVQTPCGHRFCKACIIKSIRDAGHKCPVDNEILLENQLFP (TRAF6 RING domain (UniProt Q9Y4K3))", "lacZ reporter activity": 0}
{"Sequence": "B10 (NFX1 RING domain)", "lacZ reporter activity": 0}
{"Sequence": "B11 (ZNRF4 RING domain)", "lacZ reporter activity": 0}
{"data": "Block 2", "target": "Histone acetyltransferase KAT6A, winged helix 2, GST fusion (KAT6A, Homo sapiens, UniProt Q92794, residues 85-181)", "technique": "protein binding microarray", "form": "double-stranded DNA, one strand shown", "medium": "in vitro", "tested at": "not given", "notes": "8-mer, flanks averaged, mean of 2 arrays, mostly near background", "relative to": "not given", "reading": "higher = stronger binding", "Residues (chain)": "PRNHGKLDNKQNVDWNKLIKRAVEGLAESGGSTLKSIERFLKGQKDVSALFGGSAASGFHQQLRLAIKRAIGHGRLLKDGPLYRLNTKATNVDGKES"}
{"Sequence": "CACTCGAG", "E-score": 0.128}
{"Sequence": "CCAGGTTA", "E-score": -0.00162}
{"Sequence": "ATGAGGTC", "E-score": 0.0448}
{"Sequence": "CACCTTTA", "E-score": -0.0549}
{"Sequence": "AACGCTCC", "E-score": -0.106}
{"Sequence": "CATCGGCC", "E-score": 0.0229}
{"Sequence": "GATCAGGA", "E-score": 0.118}
{"Sequence": "TGAGTTAA", "E-score": 0.00818}
{"Sequence": "CCCTAATC", "E-score": -0.0365}
{"Sequence": "CCTCCAAA", "E-score": 0.106}
{"Sequence": "CACTACGG", "E-score": 0.0112}
{"Sequence": "CTTATTGC", "E-score": -0.103}
{"Sequence": "TCTGGTAA", "E-score": 0.0713}
{"Sequence": "CTAGGAGC", "E-score": 0.111}
{"Sequence": "AGGCGCGC", "E-score": 0.0795}
{"Sequence": "GTTCGGCA", "E-score": 0.0579}
{"Sequence": "CCGGTACG", "E-score": -0.127}
{"Sequence": "AAGCAACT", "E-score": 0.145}
{"Sequence": "CTAAAAAA", "E-score": 0.0733}
{"Sequence": "AGGTTGAG", "E-score": -0.121}
{"Sequence": "GGTGCCCA", "E-score": 0.0613}
{"data": "Block 3", "target": "ABI1, truncated, D143A, DHFR fusion (Arabidopsis thaliana)", "technique": "DHFR PCA, deep sequencing", "medium": "yeast", "notes": "methotrexate growth selection, single substitutions", "added": "(+)-ABA 200 µM", "relative to": "wild-type fitted maximum", "reading": "higher = stronger binding", "starting sequence": "PYL1, truncated, DHFR fusion (Arabidopsis thaliana); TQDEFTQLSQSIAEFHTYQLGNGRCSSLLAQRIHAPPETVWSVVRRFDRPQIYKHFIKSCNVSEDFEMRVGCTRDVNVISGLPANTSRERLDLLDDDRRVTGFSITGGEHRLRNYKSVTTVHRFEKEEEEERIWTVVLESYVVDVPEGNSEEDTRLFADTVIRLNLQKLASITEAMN"}
{"Variant": "T173S", "relative binding score": "97.4%"}
{"Variant": "T119I", "relative binding score": "99.2%"}
{"Variant": "A158E", "relative binding score": "3.76%"}
{"Variant": "I172W", "relative binding score": "71.7%"}
{"Variant": "Q51M", "relative binding score": "94.5%"}
{"Variant": "E147I", "relative binding score": "92.9%"}
{"Variant": "S117E", "relative binding score": "6.79%"}
{"Variant": "I79H", "relative binding score": "106%"}
{"Variant": "R24A", "relative binding score": "99.2%"}
{"Variant": "D48F", "relative binding score": "7.14%"}
{"Variant": "I33D", "relative binding score": "-20.5%"}
{"Variant": "L169K", "relative binding score": "0.504%"}
{"Variant": "E152Y", "relative binding score": "90.9%"}
{"Variant": "A35E", "relative binding score": "26.8%"}
{"Variant": "R46E", "relative binding score": "86.9%"}
{"Variant": "H122L", "relative binding score": "50.9%"}
{"Variant": "S140L", "relative binding score": "4.4%"}
{"Variant": "C60V", "relative binding score": "98.8%"}
{"Variant": "E67S", "relative binding score": "101%"}
{"Variant": "S9W", "relative binding score": "85.2%"}
{"Variant": "D96N", "relative binding score": "92.6%"}
{"Variant": "E64H", "relative binding score": "100%"}
{"Variant": "E147L", "relative binding score": "95.5%"}
{"Variant": "I105T", "relative binding score": "76.7%"}
{"Variant": "S26C", "relative binding score": "97.9%"}
{"data": "Block 4", "target": "CCNA2, cyclin fold, Cln2 fusion (human)", "technique": "yeast growth competition, sequencing", "medium": "yeast", "notes": "strong parent motif", "relative to": "not given", "reading": "higher = stronger binding", "starting sequence": "ORC1 docking peptide (human); PRARKRLELGNLG"}
{"Variant": "K5Q", "normalised enrichment score": 2.13}
{"Variant": "L7I", "normalised enrichment score": 2.4}
{"Variant": "L7M", "normalised enrichment score": 1.46}
{"Variant": "L9H", "normalised enrichment score": 1.27}
{"Variant": "L12T", "normalised enrichment score": 5.43}
{"Variant": "L12N", "normalised enrichment score": 4.65}
{"Variant": "N11V", "normalised enrichment score": 4.91}
{"Variant": "P1G", "normalised enrichment score": 3.83}
{"Variant": "N11G", "normalised enrichment score": 5.63}
{"Variant": "E8L", "normalised enrichment score": 3.5}
{"Variant": "P1H", "normalised enrichment score": 3.7}
{"Variant": "G10Y", "normalised enrichment score": 6.43}
{"Variant": "L9D", "normalised enrichment score": 0.458}
{"Variant": "N11H", "normalised enrichment score": 5.48}
{"Variant": "P1I", "normalised enrichment score": 4.14}
{"Variant": "N11E", "normalised enrichment score": 5.1}
{"Variant": "E8Y", "normalised enrichment score": 4.13}
{"Variant": "A3H", "normalised enrichment score": 0.999}
{"data": "Block 5", "target": "Sal-like protein 4, full length isoform B (SALL4, Homo sapiens, UniProt Q9UJQ4-2, residues 1-616)", "technique": "universal PBM", "form": "double-stranded DNA, one strand shown", "medium": "in vitro", "tested at": "not given", "notes": "8-mer, flanks averaged, mean of replicates", "reading": "higher = stronger binding"}
{"Sequence": "CTGGCCCA", "E-score": -0.257}
{"Sequence": "GCAAAGAC", "E-score": 0.0464}
{"Sequence": "GGAGCTCA", "E-score": -0.102}
{"Sequence": "GATGAAAA", "E-score": 0.183}
{"Sequence": "AAGCATGC", "E-score": 0.0288}
{"Sequence": "CGCCGTGC", "E-score": -0.241}
{"Sequence": "ACCACGTA", "E-score": -0.0534}
{"Sequence": "ATGGTGCG", "E-score": -0.0595}
{"Sequence": "GTGCGCAC", "E-score": -0.108}
{"Sequence": "GCGGCTAA", "E-score": -0.048}
{"Sequence": "ACCGCAGC", "E-score": -0.196}
{"Sequence": "GCACCCCA", "E-score": -0.356}
{"Sequence": "CAGGTCCC", "E-score": -0.29}
{"Sequence": "GCGAGACC", "E-score": -0.14}
{"Sequence": "ACGCTGCA", "E-score": -0.118}
{"Sequence": "AATGACTG", "E-score": 0.174}
{"Sequence": "ACACAAAG", "E-score": 0.106}
{"Sequence": "CTACCACA", "E-score": 0.0616}
